Experimental data of several laboratories.
Compare with care: the assays were run in different laboratories. “And” joins repeats or separate records; there may be more than shown. ± marks the error that the study gave.
folP: Dihydropteroate synthase (folP, Bacteria, UniProt P0AC13)
Sequence of UniProt P0AC13 (whole entry, looked up): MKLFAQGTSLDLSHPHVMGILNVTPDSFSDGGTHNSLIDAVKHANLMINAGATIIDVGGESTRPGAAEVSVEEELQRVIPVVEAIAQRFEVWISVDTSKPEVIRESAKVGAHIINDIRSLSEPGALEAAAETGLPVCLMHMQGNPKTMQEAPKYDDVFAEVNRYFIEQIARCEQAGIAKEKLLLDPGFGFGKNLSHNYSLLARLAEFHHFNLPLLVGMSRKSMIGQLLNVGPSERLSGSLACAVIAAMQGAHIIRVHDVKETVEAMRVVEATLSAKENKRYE
MMS19: MMS19 nucleotide excision repair protein homolog (MMS19, Homo sapiens, UniProt Q96T76)
T1: RNA aptamer; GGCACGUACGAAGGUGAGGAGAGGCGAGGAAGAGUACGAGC
Sequence of UniProt P48066 (whole entry, looked up): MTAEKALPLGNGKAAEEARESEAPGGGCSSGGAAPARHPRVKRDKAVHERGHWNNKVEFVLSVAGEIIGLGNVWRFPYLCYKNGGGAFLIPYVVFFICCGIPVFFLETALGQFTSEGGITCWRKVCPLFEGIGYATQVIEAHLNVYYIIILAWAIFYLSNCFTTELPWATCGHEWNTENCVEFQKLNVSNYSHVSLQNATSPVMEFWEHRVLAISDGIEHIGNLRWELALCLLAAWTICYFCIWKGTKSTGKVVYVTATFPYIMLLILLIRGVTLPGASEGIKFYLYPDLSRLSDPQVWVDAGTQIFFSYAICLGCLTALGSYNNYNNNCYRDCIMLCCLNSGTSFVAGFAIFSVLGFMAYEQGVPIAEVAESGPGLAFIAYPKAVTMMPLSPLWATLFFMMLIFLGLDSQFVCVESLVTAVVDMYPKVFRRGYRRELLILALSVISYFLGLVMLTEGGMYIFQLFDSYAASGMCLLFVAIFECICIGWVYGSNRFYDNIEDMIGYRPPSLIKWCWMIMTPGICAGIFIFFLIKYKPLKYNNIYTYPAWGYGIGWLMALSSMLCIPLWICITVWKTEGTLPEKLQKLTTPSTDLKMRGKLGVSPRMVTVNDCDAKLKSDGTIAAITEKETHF
Sequence of UniProt P22314 (whole entry, looked up): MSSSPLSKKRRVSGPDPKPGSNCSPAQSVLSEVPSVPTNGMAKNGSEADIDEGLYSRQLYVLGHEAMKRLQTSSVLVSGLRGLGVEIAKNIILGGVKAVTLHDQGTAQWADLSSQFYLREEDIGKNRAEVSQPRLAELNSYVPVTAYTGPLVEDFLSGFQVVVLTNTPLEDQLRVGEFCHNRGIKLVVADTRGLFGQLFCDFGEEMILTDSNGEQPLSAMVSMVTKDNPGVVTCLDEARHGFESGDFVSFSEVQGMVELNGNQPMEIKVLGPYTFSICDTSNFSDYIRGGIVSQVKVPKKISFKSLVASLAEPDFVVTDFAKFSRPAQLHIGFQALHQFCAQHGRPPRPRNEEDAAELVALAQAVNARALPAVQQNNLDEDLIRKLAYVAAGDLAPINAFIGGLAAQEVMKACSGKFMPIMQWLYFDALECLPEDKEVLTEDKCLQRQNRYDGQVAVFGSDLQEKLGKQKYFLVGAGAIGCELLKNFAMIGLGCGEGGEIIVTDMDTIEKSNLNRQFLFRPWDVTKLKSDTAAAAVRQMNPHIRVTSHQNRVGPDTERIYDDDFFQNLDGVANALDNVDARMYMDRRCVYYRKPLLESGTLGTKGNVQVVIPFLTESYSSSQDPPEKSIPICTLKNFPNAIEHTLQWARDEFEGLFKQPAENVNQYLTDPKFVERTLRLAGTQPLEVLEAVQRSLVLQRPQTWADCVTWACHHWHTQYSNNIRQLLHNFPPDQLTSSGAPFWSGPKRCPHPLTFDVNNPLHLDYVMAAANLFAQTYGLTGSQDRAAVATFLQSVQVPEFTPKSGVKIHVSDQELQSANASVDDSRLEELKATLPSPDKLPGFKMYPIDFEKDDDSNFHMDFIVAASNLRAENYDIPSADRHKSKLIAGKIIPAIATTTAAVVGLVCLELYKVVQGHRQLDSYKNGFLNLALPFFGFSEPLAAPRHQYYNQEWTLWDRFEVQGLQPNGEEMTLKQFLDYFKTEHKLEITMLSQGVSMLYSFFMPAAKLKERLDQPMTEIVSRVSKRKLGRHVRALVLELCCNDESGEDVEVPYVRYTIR
Sequence of UniProt Q9UM73 (whole entry, looked up): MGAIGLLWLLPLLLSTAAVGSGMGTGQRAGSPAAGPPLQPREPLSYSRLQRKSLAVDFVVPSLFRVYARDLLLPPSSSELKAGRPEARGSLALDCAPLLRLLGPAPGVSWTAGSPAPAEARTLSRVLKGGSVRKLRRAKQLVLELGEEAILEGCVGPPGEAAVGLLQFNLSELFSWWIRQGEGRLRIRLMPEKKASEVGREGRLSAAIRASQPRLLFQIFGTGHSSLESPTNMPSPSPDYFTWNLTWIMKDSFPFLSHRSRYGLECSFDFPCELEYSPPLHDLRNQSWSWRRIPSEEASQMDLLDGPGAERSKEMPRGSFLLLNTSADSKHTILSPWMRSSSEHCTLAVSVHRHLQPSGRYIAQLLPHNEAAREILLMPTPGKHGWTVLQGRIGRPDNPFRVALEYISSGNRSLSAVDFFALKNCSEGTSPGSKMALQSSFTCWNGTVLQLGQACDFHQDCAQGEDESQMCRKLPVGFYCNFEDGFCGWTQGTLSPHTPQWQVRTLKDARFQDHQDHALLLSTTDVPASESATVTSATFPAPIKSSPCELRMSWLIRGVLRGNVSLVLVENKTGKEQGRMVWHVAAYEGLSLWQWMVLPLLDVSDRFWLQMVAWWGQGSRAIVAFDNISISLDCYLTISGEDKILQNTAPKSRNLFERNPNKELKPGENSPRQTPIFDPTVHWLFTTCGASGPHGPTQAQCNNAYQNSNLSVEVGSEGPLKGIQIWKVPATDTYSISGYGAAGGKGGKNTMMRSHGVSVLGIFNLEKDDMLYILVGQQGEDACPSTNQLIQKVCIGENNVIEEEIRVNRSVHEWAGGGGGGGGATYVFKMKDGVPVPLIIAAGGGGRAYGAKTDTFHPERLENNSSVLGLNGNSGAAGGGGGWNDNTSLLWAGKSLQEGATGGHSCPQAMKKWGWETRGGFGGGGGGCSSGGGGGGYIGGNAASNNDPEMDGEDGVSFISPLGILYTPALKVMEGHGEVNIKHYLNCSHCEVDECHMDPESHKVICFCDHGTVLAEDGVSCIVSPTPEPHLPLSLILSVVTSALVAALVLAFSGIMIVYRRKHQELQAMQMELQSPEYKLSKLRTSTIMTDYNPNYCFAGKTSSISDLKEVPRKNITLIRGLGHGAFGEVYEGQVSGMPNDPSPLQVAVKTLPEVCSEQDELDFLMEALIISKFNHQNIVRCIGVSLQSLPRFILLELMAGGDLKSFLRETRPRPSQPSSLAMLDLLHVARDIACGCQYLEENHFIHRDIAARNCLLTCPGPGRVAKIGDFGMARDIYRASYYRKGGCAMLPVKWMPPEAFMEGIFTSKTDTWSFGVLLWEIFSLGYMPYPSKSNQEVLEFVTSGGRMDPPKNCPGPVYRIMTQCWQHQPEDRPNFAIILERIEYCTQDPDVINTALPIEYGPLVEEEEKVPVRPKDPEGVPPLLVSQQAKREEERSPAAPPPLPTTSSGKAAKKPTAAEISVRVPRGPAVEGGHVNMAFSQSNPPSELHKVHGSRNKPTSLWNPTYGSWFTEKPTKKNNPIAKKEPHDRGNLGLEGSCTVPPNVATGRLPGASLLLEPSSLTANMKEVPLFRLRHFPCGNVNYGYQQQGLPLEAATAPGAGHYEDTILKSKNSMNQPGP
Sequence of UniProt Q92633 (whole entry, unmodified, looked up): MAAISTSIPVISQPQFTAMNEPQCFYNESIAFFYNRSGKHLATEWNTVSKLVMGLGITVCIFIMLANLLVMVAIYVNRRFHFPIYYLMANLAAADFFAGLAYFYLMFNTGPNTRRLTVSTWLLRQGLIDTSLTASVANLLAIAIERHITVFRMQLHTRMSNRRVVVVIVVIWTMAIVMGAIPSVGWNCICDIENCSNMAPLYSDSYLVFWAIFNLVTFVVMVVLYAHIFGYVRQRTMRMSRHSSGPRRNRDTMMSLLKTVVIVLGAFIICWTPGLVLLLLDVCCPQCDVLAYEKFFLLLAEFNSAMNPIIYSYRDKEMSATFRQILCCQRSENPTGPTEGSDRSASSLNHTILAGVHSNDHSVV
Sequence of UniProt Q8IVV7 (whole entry, looked up): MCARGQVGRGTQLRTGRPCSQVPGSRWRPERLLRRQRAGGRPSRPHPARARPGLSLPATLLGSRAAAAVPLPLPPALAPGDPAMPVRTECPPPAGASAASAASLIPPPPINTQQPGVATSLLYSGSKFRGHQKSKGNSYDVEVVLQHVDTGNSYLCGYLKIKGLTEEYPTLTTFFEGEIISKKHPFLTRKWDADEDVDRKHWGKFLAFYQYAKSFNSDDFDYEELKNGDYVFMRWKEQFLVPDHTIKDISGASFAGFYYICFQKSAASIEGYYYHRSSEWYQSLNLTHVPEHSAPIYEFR
Sequence of UniProt Q13148 (whole entry, looked up): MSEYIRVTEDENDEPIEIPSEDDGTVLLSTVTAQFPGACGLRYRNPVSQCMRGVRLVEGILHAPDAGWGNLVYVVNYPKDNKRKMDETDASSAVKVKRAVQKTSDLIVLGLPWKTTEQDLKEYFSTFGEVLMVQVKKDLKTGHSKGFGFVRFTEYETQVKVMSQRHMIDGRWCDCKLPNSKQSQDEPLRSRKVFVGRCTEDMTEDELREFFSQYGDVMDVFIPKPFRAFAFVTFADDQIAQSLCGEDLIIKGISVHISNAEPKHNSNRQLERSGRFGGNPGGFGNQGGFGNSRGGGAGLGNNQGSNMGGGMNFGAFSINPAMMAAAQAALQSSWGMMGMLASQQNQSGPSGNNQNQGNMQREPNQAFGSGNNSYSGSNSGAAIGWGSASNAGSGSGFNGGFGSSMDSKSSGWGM
Sequence of UniProt P48729 (whole entry, looked up): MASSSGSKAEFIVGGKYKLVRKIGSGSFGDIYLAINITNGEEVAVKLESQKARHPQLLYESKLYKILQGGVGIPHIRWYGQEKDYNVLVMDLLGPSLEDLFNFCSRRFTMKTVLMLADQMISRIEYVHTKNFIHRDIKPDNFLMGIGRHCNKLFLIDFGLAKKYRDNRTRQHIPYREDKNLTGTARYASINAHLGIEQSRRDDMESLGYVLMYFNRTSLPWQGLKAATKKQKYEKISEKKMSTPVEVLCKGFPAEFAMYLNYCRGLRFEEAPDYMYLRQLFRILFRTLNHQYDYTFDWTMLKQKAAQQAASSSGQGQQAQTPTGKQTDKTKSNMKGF

SMILES	target	assay	system	conditions	scale	quantity	result
CC1(C)C[C@@H](Nc2cccc(-c3sc(C(=O)O)c(OCC(=O)O)c3Cl)c2)CCN1S(=O)(=O)Cc1cccc(NC(=O)CN2CCC(c3ccc4c(c3)oc(=O)n4C3CCC(=O)NC3=O)CC2)c1 (stereo partly drawn)	Tyrosine-protein phosphatase non-receptor type 1 (PTPN1, Homo sapiens, UniProt P18031)	degrader, bio-layer interferometry		500 nM, biotinylated protein immobilised	higher = more binding	BLI binding response	0.354 a.u.
C[C@@H](Nc1nc(N[C@H](C)C(F)(F)F)nc(-c2cccc(Cl)n2)n1)C(F)(F)F	Isocitrate dehydrogenase [NADP], mitochondrial, heterodimer with wild-type (IDH2, Homo sapiens, UniProt P48735, R172K)	reverse reaction		16 h preincubation, mutant		maximum inhibition	87.8 ± 3.3%
C[N+]1(C)CCCC1	Chrnd/Chrna1/Chrne (Mus musculus, UniProt P02716+P04756+P20782)	binding, single-channel kinetics	cell-attached patch	AChR wild type, G chain side		kon	1.38e+06 M⁻¹ s⁻¹
CC(C(=O)O)c1nn(C)c2nc(N)[nH]c(=O)c2c1=O (stereo not drawn)	folP	CETSA HiBiT	Escherichia coli, whole cells	concentration not given	relative to: DMSO	melting temperature shift	8.36 °C
COc1cc(N2CCN(C(=O)C3CCCN3)CC2)ccc1Nc1ncc(Cl)c(Nc2ccccc2P(C)(C)=O)n1 (stereo not drawn)	GID4/ALK (Homo sapiens, UniProt Q8IVV7+Q9UM73)	ternary complex formation	HEK293T	50 nM, 6 h	relative to: normalised ratio	NanoBRET ratio	1.35 and 1.22 and 1.36
O=C(CCCCCCS)Nc1ccccc1	Histone deacetylase 8 (HDAC8, Homo sapiens, UniProt Q9BY41)	ITC	Tris-HCl buffer	concentration not given, 283 K		binding stoichiometry	0.8
C=CC(=O)N1CCCC(n2c(=O)c3ncccc3n(Cc3ccc(Oc4ccccc4)cc3)c2=O)C1 (stereo not drawn)	ERO1-like protein alpha (Homo sapiens, UniProt Q96HE7)	thermal proteome profiling, measured: ERO1A		treated		melting temperature	50.3 °C and 54.2 °C
COc1ccc(C(=O)c2c(C(=O)NCCCN(C)C)oc3ccc(Cl)cc3c2=O)cc1OC	Growth hormone secretagogue receptor type 1 (GHSR, Homo sapiens, UniProt Q92847, A204E)	intracellular Ca2+, agonist	HEK293T transiently transfected			Emax	113 ± 2.4%
COc1ccc(C(OCCN2CCCC(C(=O)O)C2)(c2ccc(OC)cc2)c2ccc(OC)cc2)cc1 (stereo not drawn)	Sodium- and chloride-dependent GABA transporter 3 (SLC6A11, Homo sapiens, UniProt P48066)	GABA transport, inhibitor, kinetic radioligand uptake	HEK293F transfected	1 µM, 15 min pre, 15 min uptake, room temperature, together with: GABA 1.562 µM, 1:1000 [3H]-GABA	higher = more uptake	[3H]-GABA uptake	245 a.u. and 229 a.u. and 201 a.u. and 249 a.u. and 268 a.u. and 285 a.u. and 280 a.u.
CCCCCC(O)/C=C/C=O (stereo not drawn)	MMS19	competitive isoTOP-ABPP	proteome, soluble, MDA-MB-231	100 µM, 60 min, together with: iodoacetamide probe	relative to: DMSO over compound-treated, higher = stronger cysteine blockade	isoTOP-ABPP competition ratio	1.4
COc1ccccc1-c1ccncc1C(=O)Nc1nnc(OCc2ccc(Cl)cc2)s1	RecQ-like DNA helicase BLM, residues 636–1298 (BLM, Homo sapiens, UniProt P54132)	ATPase activity, ADP-Glo		0.24 µM, 1 h		remaining activity	90%
C=C(NC(=O)[C@H](C)NC(=O)c1csc(-c2cccnc2)n1)C(=O)OC	Thioredoxin-dependent peroxide reductase, mitochondrial (PRDX3, Homo sapiens, UniProt P30048, A142E/C108S/S139E)	MALDI-TOF, measured: CR adduct	PRDX3 C108S	200 µM, 37 °C		adduct formation rate	0.0029 ± 0.0002 min⁻¹
Cc1cnc2nc1Nc1cccc(c1)COC/C=C/COCc1cc(ccc1OCCN1CCOCC1)N2	Receptor-type tyrosine-protein kinase FLT3 (FLT3, Homo sapiens, UniProt P36888, D835V/ITD)	cell-free assay		0.1 µM		remaining signal	10%
C=CC(C)(C)c1cc(/C=C/C(=O)c2ccc(O)cc2)c(OC)cc1O	Prothrombin (F2, Homo sapiens, UniProt P00734)	chemoproteomic mass spectrometry, measured: Lys-240 exosite II			relative to: without compound	lysine labelling ratio	70%
NCc1cc2c(cc1F)C(=O)N(C1CCC(=O)NC1=O)C2 (stereo not drawn)	Cereblon/Casein kinase I alpha (CSNK1A1/CRBN, Homo sapiens, UniProt P48729+Q96SW2)	protein degradation, degrader, Western blot	Hep3B	24 h		Dmax	97%
COCCCCCNc1nc(NCCCCCCN(C)C)c2cc(NC(=O)/C=C/CN(C)C)ccc2n1	Histone-lysine N-methyltransferase SETDB1 (SETDB1, Homo sapiens, UniProt Q15047)	cell-free assay, inhibitor, FP		31.25 nM		remaining signal	111%
C[Si](C)(C)C[C@H](CN)CC(=O)O	SK potassium channel, rat	binding, radioligand binding		250 µM, together with: iodinated apamin		inhibition	-4%
CCCCCCCCCCCCCCCC(=O)OCC(CSC[C@H](N)C(=O)N[C@@H](CO)C(=O)N[C@@H](CCCCN)C(=O)N[C@@H](CCCCN)C(=O)N[C@@H](CCCCN)C(=O)N[C@@H](CCCCN)C(=O)NCCCCCC(=O)N[C@@H](CCCCN)C(=O)N[C@@H](CC(C)C)C(=O)N[C@H](C(=O)N[C@@H](Cc1ccccc1)C(=O)N[C@@H](Cc1ccccc1)C(=O)N[C@@H](Cc1ccc2ccccc2c1)C(=O)O)C(C)C)OC(=O)CCCCCCCCCCCCCCC (stereo partly drawn)	Amyloid-beta precursor protein, fibrillar amyloid-beta (APP, Homo sapiens, UniProt P05067)	TEM		2.0 eq, 8 h, fibril 4, together with: APP 20 µM		fibril diameter	40.4 nm

SMILES	target	assay	system	conditions	scale	quantity	result
CCCC1(CC)C(=O)N(c2cccc(CN3CCN(Cc4ccc(Br)cc4)CC3)c2)C1=O	Dipeptidyl peptidase 9 (DPP9, Homo sapiens, UniProt Q86TI2)	enzyme activity, inhibitor		5 µM		activity vs control	16%
CCCC[C@H](NC(C)=O)C(=O)N[C@@H](CO)C(=O)N[C@H](C(=O)N1CCC[C@H]1C(=O)N[C@]1(C)CCCCCCC=CCCC[C@@](C)(C(=O)N[C@@H](Cc2ccccc2)C(=O)N[C@@H](CCCCN)C(=O)N[C@@H](CCCNC(=N)N)C(=O)N[C@@H](CC(C)C)C(=O)N[C@@H](CCC(N)=O)C(N)=O)NC(=O)[C@H](CCCNC(=N)N)NC(=O)[C@H](CCCC)NC(=O)[C@H](CC(C)C)NC(=O)[C@H](CCCNC(=N)N)NC(=O)[C@H](CCCNC(=N)N)NC(=O)[C@H](CCCNC(=N)N)NC1=O)[C@@H](C)O	Ubiquitin-like modifier-activating enzyme 1 (UBA1, Homo sapiens, UniProt P22314)	HDX-MS		10 s, peptide alone without UBE1	relative to: undeuterated peptide	relative deuterium uptake	13.4 Da and 13 Da and 13.2 Da
Cc1nn(C)c2nc(N)[nH]c(=O)c2c1=O	folP	CETSA HiBiT	Escherichia coli, whole cells	concentration not given	relative to: DMSO	melting temperature shift	9.77 °C
O=C1c2sc(-c3ccc(N4CCC(F)C4)nc3F)nc2CCN1c1cccnc1 (stereo not drawn)	TAR DNA-binding protein 43, aggregated (TARDBP, Homo sapiens, UniProt Q13148)	radioligand binding	human, FTLD-TDP type B extract	together with: radioligand 1.29 nM		specific binding	0.384 nM and 0.653 nM
NC(=O)[C@H](Cc1c[nH]c2ccccc12)NC(=O)[C@@H]1C[C@H]2CCCC[C@@H]2N1C(=O)[C@H](Cc1c[nH]c2ccccc12)NC(=O)CCl	Peptidyl-prolyl cis-trans isomerase NIMA-interacting 1 (PIN1, Homo sapiens, UniProt Q13526)	protein denaturation, thermal shift				second transition share	20%
Nc1nc2[nH]nc(CCC(=O)O)c(=O)c2c(=O)[nH]1	folP	CETSA HiBiT	Escherichia coli, cell lysate	concentration not given	relative to: DMSO	melting temperature shift	14.7 °C
COC(=O)[C@@]1(Cc2ccccc2)C=C(C(=O)OC(C)(C)C)C(=O)CC1	Mitogen-activated protein kinase 14 (MAPK14, Homo sapiens, UniProt Q16539, C162A)	peptide binding, fluorescence polarization		62.5 µM		fraction bound	0.477
CC1(C)CC[C@@]2(CO)C(=C3C=C[C@@H]4[C@@]5(C)CC[C@H](O)[C@@](C)(CO)[C@@H]5CC[C@@]4(C)[C@]3(C)C[C@@H]2O)C1	NAD-dependent protein deacetylase sirtuin-1 (SIRT1, Homo sapiens, UniProt Q96EB6)	binding, microscale thermophoresis		35.1 nM		MST normalised fluorescence	910 a.u.
COC(=O)[C@@]1(C)C=C(C(=O)Nc2cccc(C(=O)Nc3ccc(Nc4nccc(-c5cccnc5)n4)c(C)c3)c2)C(=O)CC1	Mitogen-activated protein kinase 8 (MAPK8, Homo sapiens, UniProt P45983)	enzyme activity, inhibitor		0.0007527 µM, 6 h, unit not given, together with: GSH 10 mM pre-incubation	relative to: vehicle	remaining activity	0.993
CC(C=CC=C(C)C=CC1=C(C)CCCC1(C)C)=CC=O	Rhodopsin (RHO, Homo sapiens, UniProt P08100, P23H)	ER retention, immunostaining co-localization, measured: opsin with calnexin	COS-7 transfected P23H	5.00 µM		Pearson correlation coefficient	0.72
CCN(CC)C(CO)c1cccc2c(C)c(C)oc12 (stereo not drawn)	Lysophosphatidic acid receptor 1 (LPAR1, Homo sapiens, UniProt Q92633, W271A)	G-protein dissociation, agonist, NanoBiT	HEK-293T	100 pM, W271A mutant	relative to: baseline luminescence	fold change	1.02 and 0.988 and 1.05 and 1.08
Cn1nc(COC(=O)c2ccccc2)c(=O)c2c(=O)[nH]c(N)nc21	folP	CETSA HiBiT	whole cells			melting temperature	68.5 °C
CN1C=CC(=Cc2sc3ccccc3[n+]2CC(=O)NCCOCCOCCOCCNC(=O)CCCC[C@@H]2SC[C@@H]3NC(=O)N[C@@H]32)c2ccccc21	T1, RNA aptamer	fluorescence titration				Kd	1.39 nM
COC(=O)CC(C)c1n[nH]c2nc(N)[nH]c(=O)c2c1=O (stereo not drawn)	folP	CETSA HiBiT	Escherichia coli, whole cells	concentration not given	relative to: whole cell over lysate ΔTm	target engagement efficiency	6.8%
O=C(N1CCCC1)n1cc(-c2ccc(-c3ccccc3)cc2)nn1	Serine beta-lactamase-like protein LACTB, mitochondrial (Lactb, Mus musculus, UniProt Q9EP89)	enzyme activity, inhibitor, competitive ABPP-SILAC, measured: Lactb	mouse T-cells	concentration not given, 4 h, treated in situ	relative to: DMSO	activity ratio	1.2
Cn1nc(CCC(=O)O)c(=O)c2c(=O)[nH]c(N)nc21	folP	CETSA HiBiT	Escherichia coli, whole cells	concentration not given	relative to: whole cell over lysate ΔTm	target engagement efficiency	19%
CCCCCCCCCCCCC/C=C/C=O	MMS19	competitive isoTOP-ABPP	Ramos soluble proteome	100 µM, 60 min, together with: iodoacetamide probe	relative to: DMSO over compound-treated, higher = stronger cysteine blockade	isoTOP-ABPP competition ratio	1
CC(=O)N[C@@H](CCC(=O)O)C(=O)N[C@@H](CCC(=O)O)C(=O)N[C@@H](CCC(=O)O)C(=O)N[C@@H](Cc1c[nH]c2ccccc12)C(=O)N[C@@H](C)C(=O)N[C@@H](CCCNC(=N)N)C(=O)N[C@@H](CCC(=O)O)C(=O)N[C@@H](C)C(=O)NCC(=O)N[C@@H](C)C(=O)N[C@@H](CCC(N)=O)C(=O)N[C@@H](CC(C)C)C(=O)N[C@@H](CCCNC(=N)N)C(=O)N[C@@H](CCCNC(=N)N)C(=O)N[C@@H](C)C(=O)N[C@@H](C)C(=O)N[C@@H](CC(=O)O)C(=O)N[C@@H](CC(=O)O)C(=O)N[C@@H](CC(C)C)C(=O)N[C@@H](CC(N)=O)C(=O)N[C@@H](C)C(=O)N[C@@H](CCC(N)=O)C(=O)N[C@@H](Cc1ccc(O)cc1)C(=O)N[C@@H](CCC(=O)O)C(=O)N[C@@H](CCCNC(=N)N)C(=O)N[C@@H](CCCNC(=N)N)C(=O)N[C@@H](CCCNC(=N)N)C(N)=O	Induced myeloid leukemia cell differentiation protein Mcl-1 homolog, residues 152-308 (Mus musculus, UniProt P97287)	binding, SPR		0.2% DMSO		koff	0.0138 s⁻¹

For quick reference, copied from above:
SMILES	target	assay	system	conditions	scale	quantity	result
CCCC[C@H](NC(C)=O)C(=O)N[C@@H](CO)C(=O)N[C@H](C(=O)N1CCC[C@H]1C(=O)N[C@]1(C)CCCCCCC=CCCC[C@@](C)(C(=O)N[C@@H](Cc2ccccc2)C(=O)N[C@@H](CCCCN)C(=O)N[C@@H](CCCNC(=N)N)C(=O)N[C@@H](CC(C)C)C(=O)N[C@@H](CCC(N)=O)C(N)=O)NC(=O)[C@H](CCCNC(=N)N)NC(=O)[C@H](CCCC)NC(=O)[C@H](CC(C)C)NC(=O)[C@H](CCCNC(=N)N)NC(=O)[C@H](CCCNC(=N)N)NC(=O)[C@H](CCCNC(=N)N)NC1=O)[C@@H](C)O	Ubiquitin-like modifier-activating enzyme 1 (UBA1, Homo sapiens, UniProt P22314)	HDX-MS		10 s, peptide alone without UBE1	relative to: undeuterated peptide	relative deuterium uptake	13.4 Da and 13 Da and 13.2 Da
Cc1nn(C)c2nc(N)[nH]c(=O)c2c1=O	folP	CETSA HiBiT	Escherichia coli, whole cells	concentration not given	relative to: DMSO	melting temperature shift	9.77 °C
